Measured values of several laboratories.
Lines come from different studies, so protocols differ.
ALK: ALK tyrosine kinase receptor (ALK, Homo sapiens, UniProt Q9UM73)
ALK L1196M: ALK tyrosine kinase receptor (ALK, Homo sapiens, UniProt Q9UM73, L1196M)

| Compound | target | observed | technique | tested at | relative to | remaining binding [%] |
| --- | --- | --- | --- | --- | --- | --- |
| C=CC(=O)N1CCCC(n2c(=O)c3ncccc3n(Cc3ccc(Oc4ccccc4)cc3)c2=O)C1 (centres unmarked) | ALK | cell-free assay | competition with immobilised ligand | 1 µM | – | 42 |
| CNC(=O)C1CCN(c2cc(C)c(F)cc2NC(=O)c2ccc(-c3cc(O)ccc3C)c(C)c2)CC1 | ALK | binding | competition with immobilised ligand | 1 µM | – | 93 |
| Nc1ncc2c(n1)-c1c([nH]c3ccc(C4=CCOCC4)cc13)CCC2 | ALK L1196M | binding | competition with immobilised ligand | 1 µM | – | 100 |
| Cc1cnc2nc1Nc1cccc(c1)COC/C=C/COCc1cc(ccc1OCCN1CCOCC1)N2 | ALK L1196M | binding | – | 0.1 µM | – | 92 |
| CC(C)=CC1OC(C)(C)C2C=C3C(=O)C(Cl)=CC(O)C3C3C(O)C4OC4C(=O)C132 (centres unmarked) | ALK L1196M | cell-free assay | competition with immobilised ligand | 10 µM | – | 71 |
| COc1c(Cl)cccc1Nc1c(-c2ccncc2C#C[C@@]2(C)CCCN2C(=O)/C=C/CN(C)C)[nH]c2c1C(=O)NCC2 | ALK | cell-free assay | competition with immobilised ligand | 3 µM | – | 71 |
| CNC1C[S+]2CC[S+]3CC[S+](C1)[Ru-4]321([N]=C=S)[n]2c3ccc(OC)cc3c3c4c(c5cc(F)c[n+]1c5c32)C(=O)NC4=O (centres unmarked) | ALK | – | KinomeScan | 0.1 µM | untreated | 95 |
| C=CC(=O)N1CCc2ccc(-n3c(=O)ccc4cnc5ccc(-c6cnn(C)c6)cc5c43)cc21 | ALK L1196M | – | KINOMEscan | 1 µM | DMSO control | 100 |
